Experimental data collected from several papers.
A part holds a random share of what one study measured. Substitutions count along the parent as printed.

Study 1
Target: Hepatocyte nuclear factor 3-beta, forkhead domain (FOXA2, Homo sapiens, UniProt Q9Y261, residues 142-269)
Technique: protein-binding microarray
Molecule type: double-stranded DNA, one strand shown
Matrix: in vitro
Concentration: not given
Setting: k-mer, scored over probes, only values ≥0.25
Reading: higher = stronger binding
Target sequence (chain): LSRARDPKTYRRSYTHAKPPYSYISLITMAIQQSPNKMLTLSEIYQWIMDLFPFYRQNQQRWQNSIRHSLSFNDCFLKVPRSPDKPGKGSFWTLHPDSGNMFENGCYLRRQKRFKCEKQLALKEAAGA
With `GATTGTAA` the E-score was 0.261.
`GGTAACAA` gave an E-score of 0.317.
With `GTAGTTAA` the E-score was 0.251.
`CAAATAGA` has an E-score of 0.34.
For `ACATATAT`, the E-score was 0.435.
`GTTGTTGA` has an E-score of 0.303.
With `CAGATACA` the E-score was 0.304.
`AAACATAA` gave an E-score of 0.259.

Study 2
Target: Phosphate system positive regulatory protein PHO4, full length, GST-tagged (PHO4, Saccharomyces cerevisiae, UniProt P07270, residues 1-312)
Technique: competition protein-binding microarray
Molecule type: double-stranded DNA, one strand shown
Matrix: in vitro
Concentration: 2 µM
Setting: whole 60-bp probe, lowest competitor level
Added: Cbf1 competitor, 0.05 µM
Reading: higher = stronger binding
Target sequence (chain): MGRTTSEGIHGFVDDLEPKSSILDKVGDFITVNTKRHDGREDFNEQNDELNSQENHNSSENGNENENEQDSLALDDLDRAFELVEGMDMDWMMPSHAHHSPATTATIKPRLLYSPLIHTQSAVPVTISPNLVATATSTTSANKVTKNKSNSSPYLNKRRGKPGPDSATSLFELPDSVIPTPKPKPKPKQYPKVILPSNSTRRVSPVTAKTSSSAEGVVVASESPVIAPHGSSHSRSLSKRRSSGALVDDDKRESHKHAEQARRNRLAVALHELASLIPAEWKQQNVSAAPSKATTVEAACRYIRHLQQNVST
With `AAAGCGGTAATTTGTCACGTGACTTCACATATCTATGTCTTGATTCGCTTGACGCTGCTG` the fluorescence intensity was 13400 a.u.
`TTGATATCTGAAGTTGCTCCCAAACAAATCAGAGGAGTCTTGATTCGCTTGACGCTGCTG` has a fluorescence intensity of 3020 a.u.
With `CTTCTGTAAATTTGTCACCCCACTTGACGCGCCCCGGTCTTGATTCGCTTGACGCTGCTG` the fluorescence intensity was 3880 a.u.
For `ATTACAGAAGAACCCCTCGTGACGGCTGGATTACTGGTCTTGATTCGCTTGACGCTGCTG`, the fluorescence intensity was 11900 a.u.
The fluorescence intensity of `GGTCCCGGTCTACCGCTCGTGGCAATTTCAAAAGCCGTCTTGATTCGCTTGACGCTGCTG` is reported as 9120 a.u.
With `CTTCTGTAAATTTTTCACGTGCGTTGACGCGCCCCGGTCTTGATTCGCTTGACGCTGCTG` the fluorescence intensity was 13900 a.u.
`TCCGCGAGTCATCTCGACATGACAATCTTTTGCTAGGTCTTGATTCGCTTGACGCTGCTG` gave a fluorescence intensity of 3900 a.u.
With `AACCAGACGAGGTATTGCATGACGCGGAAATCGCAAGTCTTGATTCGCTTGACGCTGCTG` the fluorescence intensity was 4890 a.u.

Single results of other studies
P1: viral docking peptide; KGVKRKLFAEDSS; partner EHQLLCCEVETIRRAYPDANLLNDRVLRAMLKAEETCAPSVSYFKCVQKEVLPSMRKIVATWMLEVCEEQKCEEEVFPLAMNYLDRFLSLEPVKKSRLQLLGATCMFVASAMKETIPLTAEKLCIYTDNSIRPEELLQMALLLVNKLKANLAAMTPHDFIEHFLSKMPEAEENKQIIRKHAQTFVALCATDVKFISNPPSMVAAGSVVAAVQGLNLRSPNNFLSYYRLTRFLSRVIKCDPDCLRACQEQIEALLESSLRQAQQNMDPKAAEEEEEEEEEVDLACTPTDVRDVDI
`P1 F8Q` — result for “normalised enrichment score”: 0.136 (CCND1, cyclin fold, Cln2 fusion (human); yeast growth competition, sequencing; yeast; strong parent motif; baseline: not given, higher = stronger binding).
`MQIDGGEGV`: binding “inactive” (HLA class I histocompatibility antigen, A alpha chain, allele A*80:01 (Homo sapiens, UniProt P04439); peptide-MHC binding; peptide; concentration not given).

For quick reference, copied from above (study 1):
With `CAGATACA` the E-score was 0.304.
`AAACATAA` gave an E-score of 0.259.
`GTTGTTGA` has an E-score of 0.303.
